Values quoted from earlier work as cited in several papers.
Each numbered part shows a few of the values that one paper quotes. ± gives the spread as reported. Converted amounts (≈) assume the structure as drawn.

Set 1
Compound: CO/N=C(\C(=O)N[C@@H]1C(=O)N2C(C(=O)O)=C(COC(C)=O)CS[C@H]12)c1csc(N)n1
Endpoint: MIC
Pseudomonas aeruginosa; clinical isolate RKI-No_230/10: > 16 mg/L
Escherichia coli; clinical isolate RKI-No_581/16: 4 mg/L (≈ 8.78 µM)
Acinetobacter baumannii; clinical isolate RKI-No_596/16: > 16 mg/L
Enterobacter cloacae; clinical isolate RKI-No_113/16: > 16 mg/L

Other studies, line by line
Fc1ccccc1Cc1nc(-c2nc(C(F)(F)F)n[nH]2)cn2ccnc12 — plasma protein binding (equilibrium dialysis; rat plasma; 1 and 10 µM): 98.5%
CCC(CC)COC(=O)[C@H](C)N[P@](=O)(OC[C@H]1O[C@@](C#N)(c2ccc3c(N)ncnn23)[C@H](O)[C@@H]1O)Oc1ccccc1 — EC50 (SARS-CoV-2; viral replication; Calu-3): 200 ± 70 nM
CC1COc2ccccc2N1C(=O)C(Cl)Cl (centres unmarked) — depletion (cytochrome P450; female rat liver microsomes; 30 min, together with: NADPH): 48 ± 1%
Nc1ncnc2c1ncn2[C@@H]1O[C@H](COP(=O)(O)OP(=O)(O)OP(=O)(O)O)[C@@H](O)[C@H]1O — Km (YcaO (Methanocaldococcus jannaschii); substrate, PNP-coupled; pH 7.5, 25 °C, together with: 500 µM peptide substrate): 117 ± 11 µM
